Results pooled from the literature.
A part holds a random share of what one study measured.

Set 1
Host: mouse
Medium: microsomes or S9
Concentration: 2 µM
Time: 0.5 h
| SMILES | remaining compound |
| --- | --- |
| NC(=O)CCN(Cc1ccccc1)C(=O)c1ccccc1OCc1ccccc1 | 0.269% |
| Cc1onc(-c2ccccc2)c1C(=O)Nc1ccon1 | 1.6% |
| Nc1[nH]nc(-c2ccc(Br)s2)c1-c1ccc2c(c1)OCO2 | 3.14% |
| CCC1(O)CCOC2(CCN(C(=O)c3cc(Cl)ccc3F)CC2)C1 (stereo not drawn) | 15.9% |
| CCc1noc(CN(CC)C(=O)C2CNCCO2)n1 (stereo not drawn) | 76.4% |
| CC(CC(=O)c1cccs1)NC(=O)C(C)n1cncn1 (stereo not drawn) | 95.6% |
| c1ccc(-c2nnc3n2CCN(c2ccc4nccnc4n2)C3)cc1 | 99.1% |

Set 2
Cell line: HaCaT
Concentration: 100 µM
Time: 18 h
| Compound | viability [%] |
| --- | --- |
| CCN(CC)CCc1nc(-c2ccccc2)no1 | 55.8 |
| CC(C)[C@H](N)C(=O)OCCOCn1cnc2c(=O)[nH]c(N)nc21 | 107 |
| C/C=C(/C(=C/C)c1ccc(O)cc1)c1ccc(O)cc1 | 99.9 |
| CCCCCCCCc1ccc(CCC(N)(CO)CO)cc1 | 19.4 |
| CC(C)(S)C(N)C(=O)O (racemic) | 96.9 |
| C#C[C@]1(O)CC[C@H]2[C@@H]3CCc4cc(OC5CCCC5)ccc4[C@H]3CC[C@@]21C | 15.8 |
| Nc1nc(Cl)nc2c1ncn2[C@@H]1O[C@H](CO)[C@@H](O)[C@@H]1F | 82.7 |
| CC1(C)S[C@@H]2[C@H](NC(=O)[C@H](N)c3ccccc3)C(=O)N2[C@H]1C(=O)O | 107 |
| CC(C)(Oc1ccc(C(=O)c2ccc(Cl)cc2)cc1)C(=O)O | 99.9 |
| COc1cc(CNC(=O)CCCC/C=C/C(C)C)ccc1O | 49.7 |
| C[N+]1(C)[C@@H]2C[C@@H](OC(=O)C(O)(c3cccs3)c3cccs3)C[C@H]1[C@@H]1O[C@@H]12 | 107 |

Set 3
Target: Beta-1 adrenergic receptor (ADRB1, Homo sapiens, UniProt P08588)
Chain of UniProt P08588 (whole entry, looked up): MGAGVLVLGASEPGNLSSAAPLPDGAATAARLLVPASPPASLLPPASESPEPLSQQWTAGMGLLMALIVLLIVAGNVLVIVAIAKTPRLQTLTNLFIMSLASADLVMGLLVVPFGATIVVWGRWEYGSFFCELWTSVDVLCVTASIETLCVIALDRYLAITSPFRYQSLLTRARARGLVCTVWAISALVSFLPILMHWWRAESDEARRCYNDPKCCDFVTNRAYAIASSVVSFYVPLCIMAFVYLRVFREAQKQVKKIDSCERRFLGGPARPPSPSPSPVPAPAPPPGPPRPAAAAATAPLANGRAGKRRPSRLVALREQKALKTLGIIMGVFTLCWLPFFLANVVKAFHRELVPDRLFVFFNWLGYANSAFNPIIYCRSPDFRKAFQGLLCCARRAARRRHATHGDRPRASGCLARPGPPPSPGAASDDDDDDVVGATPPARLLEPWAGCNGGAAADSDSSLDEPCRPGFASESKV
Action: antagonist
| SMILES | IC50 [µM] |
| --- | --- |
| CN(C)c1ccc(-c2nnc([C@H]3CCN(c4nccc(C(F)(F)F)n4)C3)o2)cc1 | ≥ 100 |
| COc1ccc(C(=O)N2CCc3cc(OC)c(OC)cc3C2COc2ccc3c(C)cc(=O)oc3c2)c(OC)c1 (stereo not drawn) | ≥ 100 |
| CC(=O)Nc1ccc([C@@H](O)[C@H]2COCC(=O)N2CCCc2ccccc2)cc1 | ≥ 100 |
| COc1ccccc1N1CCN(C(C)C(=O)NC2CCC(C)CC2)CC1 (stereo not drawn) | ≥ 100 |
| O=c1cc(-c2ccccn2)oc2c(Nc3cccnc3)nccc12 | ≥ 100 |
| COc1ccc(C(=O)NC[C@H]2O[C@@H](CC(=O)N3CCN(c4ccccc4OC)CC3)[C@H](O)[C@@H]2O)cc1 | ≥ 100 |
| Cc1noc(C)c1-c1cc2cc(C(C)C)oc2c(NCCN2CCOCC2)n1 | ≥ 100 |
| Clc1cccc(N2CCN(C3CCNCC3)CC2)c1 | ≥ 100 |
| CN(CCC(O)c1ccccc1)C(=O)c1coc(Cn2cnc3ccccc32)n1 (stereo not drawn) | ≥ 100 |
| CC(C)(Cc1ccc2ccccc2c1)NCC(O)COc1cccc(Cl)c1C#N (stereo not drawn) | ≥ 100 |
| CC(C)(C)c1ccc(O)c(O)c1 | ≥ 100 |
| Cn1c(COc2cccc(C(F)(F)F)c2Cl)nnc1[C@H]1C[C@H](N)C1 | ≥ 100 |

Set 4
Target: Muscarinic acetylcholine receptor M4 (CHRM4, Homo sapiens, UniProt P08173)
Chain of UniProt P08173 (whole entry, looked up): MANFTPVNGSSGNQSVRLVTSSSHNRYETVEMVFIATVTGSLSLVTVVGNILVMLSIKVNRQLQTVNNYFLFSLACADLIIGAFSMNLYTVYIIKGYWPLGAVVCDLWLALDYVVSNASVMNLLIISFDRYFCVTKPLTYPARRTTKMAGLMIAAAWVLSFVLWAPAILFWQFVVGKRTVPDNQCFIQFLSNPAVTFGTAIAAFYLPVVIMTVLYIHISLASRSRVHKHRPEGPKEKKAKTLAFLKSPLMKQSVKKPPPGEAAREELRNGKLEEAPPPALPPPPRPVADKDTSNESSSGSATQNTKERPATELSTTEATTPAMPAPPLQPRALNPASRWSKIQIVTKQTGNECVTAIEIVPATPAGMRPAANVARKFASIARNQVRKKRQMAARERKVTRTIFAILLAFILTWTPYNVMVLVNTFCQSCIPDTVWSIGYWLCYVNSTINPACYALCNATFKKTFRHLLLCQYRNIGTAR
Read-out: binding
Method: radioligand binding
Concentration: 10 µM
| SMILES | inhibition [%] |
| --- | --- |
| Cc1nc(C2CCN(C(=O)c3ccc(OC(F)(F)F)cc3N)CC2)c2ncc(N3CCN(C)CC3)cc2n1 | -2.04 |
| CCCOc1ccc([C@H]2[C@H](C(=O)O)[C@@H](c3ccc4c(c3)OCO4)CN2CC(=O)Nc2c(CC)cccc2CC)cc1 | 12.5 |
| CC(=O)Nc1nc(CN2CCC[C@H](Cc3cc(C)nc(C)c3)C2)cs1 | 8.78 |
| O=C(Nc1cccnn1)N1CC(CC=Cc2cncc(Oc3ccc(C(F)(F)F)cn3)n2)C1 | -7.53 |
| O=C([C@H]1C[C@H](O)CN1c1ccc(Cl)cc1)N1CC2COCC(C1)N2Cc1ccc(Cl)cc1 | -6.12 |
| COCc1nc2cnc3cc(-c4c(C)noc4C)c(OC[C@H]4CCNC4)cc3c2n1[C@H](C)c1ccccc1 | 15.7 |
| Cc1c(NC(=O)c2cc(C(N)=O)nc3cc(F)ccc23)c(C(F)(F)F)nn1Cc1ccc(C(C)(C)C)cc1 | 8.69 |
| CN1C(=O)[C@@H](N2CCc3cn(Cc4ccccc4)nc3C2=O)COc2ccccc21 | 8.56 |
| CCOC(=O)c1cc2cc(-c3cc(C(=O)NCc4ccc(C(=O)O)cc4)nn3C)ccc2[nH]1 | -6.49 |
| CN1CCN(C(=O)C(C)(C)c2ccc(C(=O)Nc3cn4cc(-c5ccncc5)ccc4n3)cc2)CC1 | 25.2 |
| O=C1c2ccc(Nc3ccc(F)cc3F)cc2CCc2ccc(OC[C@H](O)CO)cc21 | -3.22 |
| CC(C)(O)c1cncc(-c2nc3ccc(F)cc3n2C2CC2)c1 | -0.57 |
| CS(=O)(=O)NCC[C@H](NC(=O)c1cncc2c1cnn2-c1ccc(F)cc1)c1ccnc(S(C)(=O)=O)c1 | 10.8 |
| O=C1CCc2cc(Nc3cc(OC4CCOCC4)c([N+](=O)[O-])cc3Cl)ccc2N1 | 48.7 |
| O[C@]1(C(F)(F)F)CCCC[C@H]1Nc1ccc(F)cc1 | 13.9 |
| CC(=O)N1CCC(c2ccc(C(=O)NC(=N)N)cc2C(F)(F)F)CC1 | 22.3 |
| COc1cccc(CNC(=O)c2nc3scc(COCc4ccc(C(=O)O)cc4)c3c(=O)[nH]2)c1 | -11.2 |
| O=C(Nc1cnc(Oc2ccc(F)cc2)nc1)N1CCc2ncccc2[C@@H]1c1ccc(F)cc1 | 22.8 |
| Cc1cc(C)c(-n2ccn3nc(-c4cccnc4)cc23)cc1NC(=O)c1cc(C#N)cc(S(F)(F)(F)(F)F)c1 | 14.9 |
| C[C@@]1(Cc2ccc(C#N)cc2)C(=O)N(c2cc(Cl)cc(Cl)c2)c2ncc(C(=O)NC3(c4nc(C5CCC5)no4)CC3)n21 | 21.6 |
| CNC(=O)Nc1ccc2c(c1)[C@]1(CC2)OC(=O)N(CC(=O)N(Cc2ccc(F)cc2)[C@@H](C)C(F)(F)F)C1=O | 30.4 |
